Assay results gathered from unrelated publications.
Numbered parts are unrelated; each lists some results of a single study. Substitutions count along the parent as printed.

Block 1
Target: Interferon regulatory factor 3, full length, phosphomimetic (IRF3, Homo sapiens, UniProt Q14653, residues 1-427, S386D/S396D/S398D/S402D/T404D/S405D)
Chain of UniProt Q14653 (whole entry, unmodified, looked up): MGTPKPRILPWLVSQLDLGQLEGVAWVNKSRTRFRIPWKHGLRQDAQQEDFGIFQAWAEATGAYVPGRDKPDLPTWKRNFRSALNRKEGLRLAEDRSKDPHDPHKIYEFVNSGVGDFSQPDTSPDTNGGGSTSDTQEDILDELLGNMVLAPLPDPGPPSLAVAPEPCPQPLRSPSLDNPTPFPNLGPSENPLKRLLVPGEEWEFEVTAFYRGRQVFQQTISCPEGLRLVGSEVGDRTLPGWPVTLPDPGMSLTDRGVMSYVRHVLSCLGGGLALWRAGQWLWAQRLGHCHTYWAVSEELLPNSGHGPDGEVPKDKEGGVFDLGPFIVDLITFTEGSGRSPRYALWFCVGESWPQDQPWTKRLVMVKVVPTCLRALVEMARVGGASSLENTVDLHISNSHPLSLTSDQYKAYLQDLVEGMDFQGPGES
Method: protein-binding microarray
Form: double-stranded DNA, one strand shown
Matrix: in vitro
Tested at: 2540 nM top
Setting: 60-bp whole probe
Together with: salmon DNA 0.4 mg/ml
Relative to: random background probes
Direction: higher = stronger binding
All sequences stand within: GCCTAGCAC … GTCTTGATTCGCTTGACGCTGCTG
| Sequence | fitted relative affinity |
| --- | --- |
| GACGGACTGGGACTGGGAACGTGCTAG | -0.628 z-score |
| GACGATCTCAGAATGGAGACGTGCTAG | 0.706 z-score |
| GACGGACTGGGGTAACGGGACGTGCTA | -0.938 z-score |
| TCATGCCTCATCTTGCAGACTGTGCTA | 0.571 z-score |
| GACGGACTGCGACTGGGGACGTGCTAG | -0.835 z-score |
| TTAGATATCAGTCTGGATTAGTGCTAG | 0.208 z-score |
| TTAGGTTTCGGATCCGGTTAGTGCTAG | 8.02 z-score |
| GTGTATATGGACGTCTGAAGGTGCTAG | -0.226 z-score |
| GACGGACTGGATTTTCGGGACGTGCTA | -0.157 z-score |
| GACGGTATCGGGCTTCGGGACGTGCTA | 0.971 z-score |
| TTAGATTTCAGTTTCGATTTGTGCTAG | 7.29 z-score |
| GACGATATCGGGTATGGAGACGTGCTA | 0.0414 z-score |
| TTAGGTTTCGGTCTCTGTTAGTGCTAG | 8.47 z-score |

Block 2
Target: CCNB3, cyclin fold, Cln2 fusion (human)
Method: yeast growth competition, sequencing
Matrix: yeast
Setting: weak parent motif
Relative to: not given
Direction: higher = stronger binding
Parent: CDC25A docking peptide (human); PPHRRRLLFACSP; partner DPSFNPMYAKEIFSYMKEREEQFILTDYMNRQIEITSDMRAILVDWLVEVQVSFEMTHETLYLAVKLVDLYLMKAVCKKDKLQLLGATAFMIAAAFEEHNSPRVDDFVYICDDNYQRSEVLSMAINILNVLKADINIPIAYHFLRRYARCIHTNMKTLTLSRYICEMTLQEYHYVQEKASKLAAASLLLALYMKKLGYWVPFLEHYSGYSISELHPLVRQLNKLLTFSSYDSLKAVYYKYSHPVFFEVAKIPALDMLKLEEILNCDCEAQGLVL
| Change | normalised enrichment score |
| --- | --- |
| R4D | 0.269 |
| F9Q | -0.143 |
| H3W | 0.256 |
| H3R | 0.423 |
| S12L | 0.495 |
| R4L | 0.544 |
| P2M | 0.679 |
| R6N | 0.45 |
| P13T | 0.479 |
| R5V | 0.527 |
| H3Y | 0.389 |
| C11Q | 0.563 |
| C11W | 0.0356 |
| P1H | 0.344 |
| S12F | 0.153 |
| P2F | 0.331 |

Block 3
Target: Sal-like protein 4, full length isoform A (SALL4, Homo sapiens, UniProt Q9UJQ4, residues 1-1053)
Chain of UniProt Q9UJQ4 (whole entry, looked up): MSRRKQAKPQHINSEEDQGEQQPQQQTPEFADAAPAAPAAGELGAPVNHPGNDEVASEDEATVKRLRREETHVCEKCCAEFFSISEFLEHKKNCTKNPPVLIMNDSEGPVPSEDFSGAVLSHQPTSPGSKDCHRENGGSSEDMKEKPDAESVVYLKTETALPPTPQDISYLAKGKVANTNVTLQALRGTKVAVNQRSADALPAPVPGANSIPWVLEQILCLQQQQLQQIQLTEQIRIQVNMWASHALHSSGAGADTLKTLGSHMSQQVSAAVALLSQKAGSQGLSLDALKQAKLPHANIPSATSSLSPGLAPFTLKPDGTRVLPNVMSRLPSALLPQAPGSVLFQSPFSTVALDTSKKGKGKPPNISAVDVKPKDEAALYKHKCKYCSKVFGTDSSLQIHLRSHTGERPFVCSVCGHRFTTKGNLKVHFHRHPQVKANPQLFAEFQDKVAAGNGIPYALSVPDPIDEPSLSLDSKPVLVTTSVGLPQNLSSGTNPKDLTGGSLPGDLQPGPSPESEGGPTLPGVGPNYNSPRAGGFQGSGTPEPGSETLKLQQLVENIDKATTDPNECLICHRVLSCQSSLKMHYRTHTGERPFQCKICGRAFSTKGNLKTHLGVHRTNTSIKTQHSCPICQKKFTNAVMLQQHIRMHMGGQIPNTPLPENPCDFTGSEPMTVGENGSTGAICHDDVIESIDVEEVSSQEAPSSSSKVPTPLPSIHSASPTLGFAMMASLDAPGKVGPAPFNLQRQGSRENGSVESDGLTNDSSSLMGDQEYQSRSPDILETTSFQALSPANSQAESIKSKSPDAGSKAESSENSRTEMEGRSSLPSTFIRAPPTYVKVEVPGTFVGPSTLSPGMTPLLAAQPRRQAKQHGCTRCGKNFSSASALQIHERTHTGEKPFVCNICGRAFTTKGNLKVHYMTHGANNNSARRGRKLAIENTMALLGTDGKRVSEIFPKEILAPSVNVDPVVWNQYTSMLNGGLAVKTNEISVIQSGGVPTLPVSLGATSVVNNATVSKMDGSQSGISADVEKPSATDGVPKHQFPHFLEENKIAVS
Method: universal PBM
Form: double-stranded DNA, one strand shown
Matrix: in vitro
Tested at: 600 nM
Setting: 8-mer, flanks averaged, mean of replicates
Direction: higher = stronger binding
| Sequence | E-score |
| --- | --- |
| CACAAAAG | -0.0132 |
| GATCTCAC | -0.0817 |
| GCCAGAAC | -0.176 |
| ACAAAACG | 0.143 |
| GCCTAGTA | -0.0853 |
| GCTATCAA | 0.0979 |
| CCGAGTGA | -0.118 |
| CGGCTCGA | -0.294 |

Block 4
Target: ABI1, truncated, D143A, DHFR fusion (Arabidopsis thaliana)
Method: DHFR PCA, deep sequencing
Matrix: yeast
Setting: methotrexate growth selection, single substitutions
Together with: (+)-ABA 2500 µM
Relative to: wild-type fitted maximum
Direction: higher = stronger binding
Parent: PYL1, truncated, DHFR fusion (Arabidopsis thaliana); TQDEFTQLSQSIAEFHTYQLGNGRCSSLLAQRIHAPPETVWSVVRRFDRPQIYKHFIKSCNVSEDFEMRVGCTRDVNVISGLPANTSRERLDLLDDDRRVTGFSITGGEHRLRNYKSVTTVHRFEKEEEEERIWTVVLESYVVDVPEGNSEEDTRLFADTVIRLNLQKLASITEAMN
| Change | relative binding score |
| --- | --- |
| L164C | 102% |
| L138V | 94% |
| Y53T | 67.1% |
| M176V | 96.8% |
| T106I | 101% |
| D96Q | 90.8% |
| L94T | 87.9% |
| G148L | 89.4% |
| R24S | 99.9% |
| A84R | 4.91% |
| H110I | 15.3% |

Block 5
Target: RNA binding protein fox-1 homolog 2, RRM domain, GST-SBP tag (RBFOX2, Homo sapiens, UniProt O43251-10, residues 100-194)
Method: RNA Bind-n-Seq
Form: RNA
Matrix: in vitro
Tested at: 365 nM
Setting: natural RNA segment, single round, ends assumed
Relative to: no-protein control
Direction: higher = stronger binding
All sequences stand within: GGGAGUUCUACAGUCCGACGAUC … UGGAAUUCUCGGGUGCCAA
Target sequence (chain): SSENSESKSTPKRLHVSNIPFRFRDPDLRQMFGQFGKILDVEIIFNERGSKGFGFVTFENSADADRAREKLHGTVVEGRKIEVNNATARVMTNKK
| Sequence | RBNS enrichment (R) |
| --- | --- |
| GUCUAUAAAAAUGGAGUCACUGGGAUAUCAAUGAAGAAAUCAAACUGUUUAAUUUUAAUUCAGUUGUUAAUGUGUCUUAGUGUGUGCAUUAUUUUCUUACUAUUAACCCA | 0.622 |
| UUUAAGACUCUUAAACUCAAAACUCUGCACAAAGAUUUCAGUUUCAAAUGUGUAUUAUACAUGGGUAGAAAAGUGUUUGCACAGGCAACUUUUGGAAGUGUUUAAGAAUC | 2.35 |
| AGCUGACUUUGUUGCCUUAUCUUGAAAAGAAUCUAGAUAGGUGCUUUUAACUGGGGUAUUAACUUUUUUAGAAUGACACAGCUGAACAGUGUUAAUAAUAGUGUGUCAAG | 0.443 |
| UGUUUGAAAUUAGUAACAAUGCUGCAUCUAGAUUGGAGUGCUGCCCAGCCAUAGAAGCAGAGCUGAACAGUAUCACAUAGCGAUUCAUGGUCACUCGCAACCUGAGUUCA | 0.489 |
| AGCUGGAGUUGGAUGACGAACUCAAGAGUGUGGAGAACCAGGUGCGCUACGCCCAGAUCCAGCUGGACAAGCUCAAGAAAACCAAUGUCUUCAAUGCCACCUUCCACAUC | 0.272 |
| CUUGUACCCAAUUGCUCCCAAUUUUGAGAGGAUUGGGUGGGCAGGGGAACUCCUAAAAAAAAAAAAUAAUAAAUGACCACUUCCUCGUUUCUGGGGAAGCAAAGGAGCUU | 0.283 |
| ACAGCCCCAGGGGCCUUGAGGGUCUGAGGUCCCAGCCCUGUUGCCAAGUGACCUUGUCCCCAGCUCCCUCCUCCCAGGCUGGUGUGAGUGUGCGUGCGUUUGUGCCGAGC | 1.6 |

Block 6
Target: Ras GTPase-activating protein-binding protein 1, C-terminal RGG region (G3BP1, Homo sapiens, UniProt Q13283)
Chain of UniProt Q13283 (whole entry, looked up): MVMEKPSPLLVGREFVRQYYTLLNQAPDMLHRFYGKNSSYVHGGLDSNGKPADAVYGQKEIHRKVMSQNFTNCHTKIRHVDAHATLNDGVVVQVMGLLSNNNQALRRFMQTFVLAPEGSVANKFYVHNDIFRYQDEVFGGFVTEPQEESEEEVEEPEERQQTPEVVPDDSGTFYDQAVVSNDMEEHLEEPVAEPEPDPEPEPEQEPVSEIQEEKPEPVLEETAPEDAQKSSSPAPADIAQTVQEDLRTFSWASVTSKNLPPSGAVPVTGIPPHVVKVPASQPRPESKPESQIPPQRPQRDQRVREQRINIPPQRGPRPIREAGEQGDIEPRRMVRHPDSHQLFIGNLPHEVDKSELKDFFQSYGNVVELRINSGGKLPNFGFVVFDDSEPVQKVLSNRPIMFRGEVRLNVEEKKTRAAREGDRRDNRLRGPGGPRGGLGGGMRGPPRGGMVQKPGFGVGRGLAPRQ
Method: RNA Bind-n-Seq
Form: RNA
Matrix: in vitro
Tested at: 1 µM
Setting: whole 134-nt RNA, ends assumed
Together with: 150 mM KCl
Relative to: input library
Direction: higher = stronger binding
All sequences stand within: GGGAGUUCUACAGUCCGACGAUC … UGGAAUUCUCGGGUGUCAAGG
| Sequence | log2 enrichment |
| --- | --- |
| UCAAGUCCUGUGCUACACAUCGUAUGUACCGAAUCGGCCCGGGCCCGGCCCGGGAAAGUAUUAUGUUACGCCGUUCGGAUCUGCACUUCC | -1.62 |
| CUGUGCUACACAUCGUAUGUACCGAAUCGGGGUUUUUGGGGUUUUUGGGGAAAAAAAGGGGAAAGUAUUAUGUUACGCCGUUCGGAUCUG | -0.175 |
| CUCAAGUCCUGUGCUACACAUCGUAUGUACCGAAUCGGGGAGGGGAGGGGAGGAAAGUAUUAUGUUACGCCGUUCGGAUCUGCACUUCCA | 1.07 |
| AGUCCUGUGCUACACAUCGUAUGUACCGAAUCGGGCCCCCGGGGCCCCCGGCCCCCGGAAAGUAUUAUGUUACGCCGUUCGGAUCUGCAC | -2.05 |
| UGCUCUUCACCAAGGAGGACGAGCCUGGCCGCUGCGACGUCCUGAGGAACCCCCUCUACCUCCAGAGUGUGAAGCUGCAGGAAGGUAAGC | -0.762 |
| GUCCUGUGCUACACAUCGUAUGUACCGAAUCGGGAAAGGGAAAAAAAGGGUUUUUGGGAAAGUAUUAUGUUACGCCGUUCGGAUCUGCAC | -0.388 |
| CAAGUCCUGUGCUACACAUCGUAUGUACCGAAUCGGGUUUGGGUUUGGGGUUUGGGAAAGUAUUAUGUUACGCCGUUCGGAUCUGCACUU | 2.18 |
| UCCUGUGCUACACAUCGUAUGUACCGAAUCGGGGAAAAAAAGGGGAGGGGAAAAAGGGGAAAGUAUUAUGUUACGCCGUUCGGAUCUGCA | 1.41 |
| UGUGCUACACAUCGUAUGUACCGAAUCGGGGAAAAAAAGGGGUUUUUGGGGAAAAAAAGGGGAAAGUAUUAUGUUACGCCGUUCGGAUCU | 0.455 |
| GCAGGAAGUAAAAACAAAUGGAAAUGCUUCGGAUAGUGGCAGGGGUUGGGGUUGCUAAGGAAAGGGUGGGAUGGGAGUGGGUAAAGAGUU | 0.48 |
| UGGAAUAAGCCUGGUGCUUUCUGGCUAUGUUUGUCAUAGGCUGACCUGGAUAUCACCGAAAUAAACAAACUAACAGCAGAAGCUAUUCAG | -1.23 |
| CAAGUCCUGUGCUACACAUCGUAUGUACCGAAUCGGGGUGGGGAAAGGGGAGGGGAAAGUAUUAUGUUACGCCGUUCGGAUCUGCACUUC | 3.09 |
| AAGUCCUGUGCUACACAUCGUAUGUACCGAAUCGGGAAAAGGGAAAAGGGGAAAAGGAAAGUAUUAUGUUACGCCGUUCGGAUCUGCACU | -1.33 |

Block 7
Target: Histone acetyltransferase KAT6A, winged helix 2, GST fusion (KAT6A, Homo sapiens, UniProt Q92794, residues 85-181)
Method: protein binding microarray
Form: double-stranded DNA, one strand shown
Matrix: in vitro
Tested at: not given
Setting: 8-mer, flanks averaged, mean of 2 arrays, mostly near background
Relative to: not given
Direction: higher = stronger binding
Residues (chain): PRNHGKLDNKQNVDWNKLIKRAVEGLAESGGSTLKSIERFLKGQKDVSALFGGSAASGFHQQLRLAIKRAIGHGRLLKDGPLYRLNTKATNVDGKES
| Sequence | E-score |
| --- | --- |
| CGGAGTAC | -0.0339 |
| ACCCGGAA | 0.0942 |
| GCTTCCGA | 0.118 |
| AGCTGAAG | -0.0843 |
| CTCTCCTC | -0.138 |
| GGTAACCA | -0.0213 |
| GCCTGCAC | 0.121 |
| CCATACCA | -0.032 |
| GAGGATGA | -0.0734 |
| ACACACGA | -0.141 |
| CGGGTCGC | 0.222 |
| ATACAGGA | -0.183 |
| CTTTGCCC | -0.0454 |
| AGCAGCCC | 0.143 |
| AAGCGGTA | 0.0137 |
| ACATGGGT | -0.17 |
| AATGAGTA | -0.085 |
